Published values from different studies.
Each line is one published result; not all experiments were run side by side. ± gives the spread as reported.

For `O=C(N/N=C/c1cc[n+](CC2CC2)c2ccccc12)c1cccc(C(=O)N/N=C/c2cc[n+](CC3CC3)c3ccccc23)c1`, the ΔTm was 13.5 ± 0.4 °C (telomeric G4 DNA hybrid-2; FRET melting; 1 µM, DNA 0.2 µM, together with: duplex DNA competitor 10 µM).
For `CNS(=O)(=O)Nc1nccc(Cc2c(C)c3ccc(Oc4ncccc4F)cc3oc2=O)c1F`, the IC50 was over 1000 nM (NCI-H650; cell viability; 7 days).
`N=C(N)NCCC[C@@H]1NC(=O)[C@H](CCCNC(=N)N)NC(=O)[C@@H](CCCNC(=N)N)NC(=O)[C@@H](CCCNC(=N)N)NC(=O)[C@@H](C(c2ccccc2)c2ccccc2)NC(=O)[C@@H](Cc2c[nH]c3ccccc23)NC(=O)[C@@H](C(c2ccccc2)c2ccccc2)NC1=O` gave an MIC of over 64 µg/mL (Aspergillus fumigatus; fungal growth).
With `C=C(NC(=O)c1csc(-c2nc3c(cc2O)-c2nc(cs2)C(=O)NC(C(C)O)C(=O)NC(=C(C)OC)c2nc(cs2)C(=O)NC2c4nc(cs4)C(=O)NC(COC(=O)c4c5c6c(cccc6n4O)COC(=O)C(OC4CC(C)(O)C(N(C)C)C(C)O4)C2OC5)c2nc-3cs2)n1)C(N)=O` (stereo not shown) the ED50 was 1.96 mg/kg (Streptococcus pneumoniae; -4, penicillin-resistant, mouse systemic infection; intravenous; survival).
`C[n+]1cccc2cc(/C=N/NC(=O)c3cccc(C(=O)N/N=C/c4ccc5c(ccc[n+]5C)c4)n3)ccc21` gave a ΔTm of 20.3 ± 1.8 °C (telomeric G4 DNA hybrid-2; FRET melting; 1 µM, DNA 0.2 µM, together with: duplex DNA competitor 10 µM).
`Cc1ncsc1-c1ccc(C(C)NC(=O)C2CC(O)CN2C(=O)C(NC(=O)CCCCCCCCCCN2CCCC(Nc3ncc(Cl)c(Nc4ccccc4S(=O)(=O)C(C)C)n3)C2)C(C)(C)C)cc1` (stereo not shown): “log2 fold change” -1.1 (22Rv1; RNA-seq, measured: LYSMD1 mRNA; concentration not given; baseline: DMSO).
With `O=C(N/N=C/c1cc[n+](Cc2ccccc2)c2ccccc12)c1cc(C(=O)N/N=C/c2cc[n+](Cc3ccccc3)c3ccccc23)ncn1` the ΔTm was 13.2 ± 0.2 °C (telomeric G4 DNA hybrid-2; FRET melting; 1 µM, DNA 0.2 µM).
Under “percent of control”, `C=CC(=O)Nc1cccc(Cn2ncc3cnc(Nc4cnn(CCOC)c4)nc32)c1` is recorded as 100% (MAP3K1 human; binding, KINOMEscan; 100 nM; lower = stronger binding).
With `CC(=O)[O-].O.O.O.O.[Co+2].[O-]c1ccc(Br)cc1C=NCCN1CCOCC1` the inhibition was 31.2% (hydroxyl radical scavenging; 120 µM).
`CC(C)(C)c1cc(-c2ccc3cccnc3n2)nc(-c2ccc3cccnc3n2)c1.COc1ccncc1.[Cl-].[Cl-].[Ru+2].c1ccc2cc3nc4c5cccnc5c5ncccc5c4nc3cc2c1` gave a phototherapeutic index of 198 (SK-MEL-28; visible light; baseline: dark EC50 over light EC50).
`C=CC(=O)N1[C@H](c2ccc3c(c2)OCO3)c2[nH]c3ccccc3c2C[C@@H]1C(=O)N1CCN(C)CC1` gave a relative co-enrichment of 75% (human cyclin E1 N112C-3xFLAG:CDK2; co-IP with TMT proteomics, measured: TXN; concentration not given, P10599; baseline: wild type DMSO).
`O=C(N/N=C/c1cc[n+](Cc2ccccc2)c2ccccc12)c1cccc(C(=O)N/N=C/c2cc[n+](Cc3ccccc3)c3ccccc23)n1` gave a ΔTm of 25.1 ± 0.4 °C (telomeric G4 DNA hybrid-2; FRET melting; 1 µM, DNA 0.2 µM).
Under “log2 fold change”, `COC1CN([C@H]2CC[C@H]([C@@]3(C)Oc4c(Cl)cc(C(=O)NCc5c(SC)cc(C)[nH]c5=O)c(C)c4O3)CC2)C1` is recorded as 1.62 (RNA-seq, measured: METTL27 mouse homolog; mouse, HT-1376 xenograft, whole blood; dose not given; baseline: vehicle).
For `CN1CCCNC(=O)c2cccc(c2)C(=O)NCCCN(C)CCCNc2cccc3c2C(=O)c2cccc(c2C3=O)NCCC1`, “log2 fold change” read -0.375 (SAS; RNA-Seq, measured: NOP56 mRNA; 1 µM, 6 h; baseline: untreated cells).
With `O=C(N/N=C/c1ccc2c(ccc[n+]2Cc2ccccc2)c1)c1ccc2ccc(C(=O)N/N=C/c3ccc4c(ccc[n+]4Cc4ccccc4)c3)nc2n1` the ΔTm was 19.2 ± 0.9 °C (telomeric G4 DNA hybrid-2; FRET melting; 1 µM, DNA 0.2 µM, together with: duplex DNA competitor 10 µM).
The remaining binding of `Nc1ncc(-c2cc(-c3cnn(CC(F)(F)F)c3)ncc2F)nc1C(=O)NC1CNCC(F)C1` (stereo not shown) is reported as 97% (TAK1; KINOMEscan; 1 µM; baseline: DMSO control).

Repeated from above:
For `CN1CCCNC(=O)c2cccc(c2)C(=O)NCCCN(C)CCCNc2cccc3c2C(=O)c2cccc(c2C3=O)NCCC1`, “log2 fold change” read -0.375 (SAS; RNA-Seq, measured: NOP56 mRNA; 1 µM, 6 h; baseline: untreated cells).
